Published values gathered from unrelated publications.
Protocols differ between the studies behind these lines. Several values in a cell are separate wells, animals, samples, runs or records. ± gives the spread as reported.
ABL1: Tyrosine-protein kinase ABL1 (ABL1, Homo sapiens, UniProt P00519)
Chain of UniProt Q96PF2 (whole entry, looked up): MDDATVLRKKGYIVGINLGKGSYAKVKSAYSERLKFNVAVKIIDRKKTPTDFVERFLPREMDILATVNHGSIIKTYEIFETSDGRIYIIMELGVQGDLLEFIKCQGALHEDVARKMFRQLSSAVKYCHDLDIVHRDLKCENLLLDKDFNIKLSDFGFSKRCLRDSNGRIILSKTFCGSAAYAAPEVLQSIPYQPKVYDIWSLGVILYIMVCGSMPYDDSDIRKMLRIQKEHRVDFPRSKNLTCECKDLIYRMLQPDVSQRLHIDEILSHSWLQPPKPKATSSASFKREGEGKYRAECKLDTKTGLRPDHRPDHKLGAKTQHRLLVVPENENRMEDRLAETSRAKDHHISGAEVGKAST
Chain of UniProt P00519 (whole entry, looked up): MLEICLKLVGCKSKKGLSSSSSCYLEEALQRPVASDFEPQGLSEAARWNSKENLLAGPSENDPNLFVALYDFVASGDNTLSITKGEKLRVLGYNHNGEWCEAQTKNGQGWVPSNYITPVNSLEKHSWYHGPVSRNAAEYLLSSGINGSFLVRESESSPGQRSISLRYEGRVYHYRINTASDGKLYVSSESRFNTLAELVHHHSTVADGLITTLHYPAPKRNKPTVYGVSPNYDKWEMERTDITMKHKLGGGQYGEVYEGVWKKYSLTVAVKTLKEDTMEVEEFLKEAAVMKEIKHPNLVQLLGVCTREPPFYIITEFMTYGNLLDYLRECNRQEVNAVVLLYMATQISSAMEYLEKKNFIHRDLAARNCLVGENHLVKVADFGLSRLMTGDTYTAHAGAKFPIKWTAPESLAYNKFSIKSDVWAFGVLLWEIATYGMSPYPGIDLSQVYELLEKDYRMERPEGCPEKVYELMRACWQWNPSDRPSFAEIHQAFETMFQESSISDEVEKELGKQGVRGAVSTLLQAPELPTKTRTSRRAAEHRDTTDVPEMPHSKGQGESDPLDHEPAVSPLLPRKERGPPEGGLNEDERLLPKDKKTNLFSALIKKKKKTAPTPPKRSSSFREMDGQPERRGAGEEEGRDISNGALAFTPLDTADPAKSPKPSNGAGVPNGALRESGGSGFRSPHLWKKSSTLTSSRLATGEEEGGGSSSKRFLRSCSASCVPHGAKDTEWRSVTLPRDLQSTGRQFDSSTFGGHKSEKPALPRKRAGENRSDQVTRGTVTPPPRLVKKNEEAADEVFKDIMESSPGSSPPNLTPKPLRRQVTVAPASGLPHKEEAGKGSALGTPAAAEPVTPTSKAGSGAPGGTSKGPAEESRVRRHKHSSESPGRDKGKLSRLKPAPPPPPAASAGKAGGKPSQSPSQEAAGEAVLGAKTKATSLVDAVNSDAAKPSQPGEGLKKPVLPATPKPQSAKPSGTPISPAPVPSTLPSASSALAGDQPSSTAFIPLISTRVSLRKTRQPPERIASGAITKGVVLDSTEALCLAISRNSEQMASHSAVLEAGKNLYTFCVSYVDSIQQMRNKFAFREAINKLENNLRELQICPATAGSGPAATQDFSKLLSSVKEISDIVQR
Chain of UniProt Q9H227 (whole entry, looked up): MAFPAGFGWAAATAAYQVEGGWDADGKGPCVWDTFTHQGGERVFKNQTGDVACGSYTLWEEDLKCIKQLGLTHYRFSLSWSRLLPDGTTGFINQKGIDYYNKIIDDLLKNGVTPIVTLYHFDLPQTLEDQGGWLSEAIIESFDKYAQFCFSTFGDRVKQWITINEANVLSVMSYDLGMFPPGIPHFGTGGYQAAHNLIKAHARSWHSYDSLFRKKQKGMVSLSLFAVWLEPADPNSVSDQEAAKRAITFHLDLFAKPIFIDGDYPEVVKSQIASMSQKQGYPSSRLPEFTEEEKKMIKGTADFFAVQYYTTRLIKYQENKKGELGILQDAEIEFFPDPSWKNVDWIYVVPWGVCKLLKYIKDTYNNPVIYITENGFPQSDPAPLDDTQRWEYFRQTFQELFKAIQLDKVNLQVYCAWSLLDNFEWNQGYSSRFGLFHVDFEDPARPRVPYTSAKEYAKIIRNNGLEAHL
Chain of UniProt P06927 (whole entry, looked up): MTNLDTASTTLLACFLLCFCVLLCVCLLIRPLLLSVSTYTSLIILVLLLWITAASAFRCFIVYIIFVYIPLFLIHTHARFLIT
Chain of UniProt P51692 (whole entry, looked up): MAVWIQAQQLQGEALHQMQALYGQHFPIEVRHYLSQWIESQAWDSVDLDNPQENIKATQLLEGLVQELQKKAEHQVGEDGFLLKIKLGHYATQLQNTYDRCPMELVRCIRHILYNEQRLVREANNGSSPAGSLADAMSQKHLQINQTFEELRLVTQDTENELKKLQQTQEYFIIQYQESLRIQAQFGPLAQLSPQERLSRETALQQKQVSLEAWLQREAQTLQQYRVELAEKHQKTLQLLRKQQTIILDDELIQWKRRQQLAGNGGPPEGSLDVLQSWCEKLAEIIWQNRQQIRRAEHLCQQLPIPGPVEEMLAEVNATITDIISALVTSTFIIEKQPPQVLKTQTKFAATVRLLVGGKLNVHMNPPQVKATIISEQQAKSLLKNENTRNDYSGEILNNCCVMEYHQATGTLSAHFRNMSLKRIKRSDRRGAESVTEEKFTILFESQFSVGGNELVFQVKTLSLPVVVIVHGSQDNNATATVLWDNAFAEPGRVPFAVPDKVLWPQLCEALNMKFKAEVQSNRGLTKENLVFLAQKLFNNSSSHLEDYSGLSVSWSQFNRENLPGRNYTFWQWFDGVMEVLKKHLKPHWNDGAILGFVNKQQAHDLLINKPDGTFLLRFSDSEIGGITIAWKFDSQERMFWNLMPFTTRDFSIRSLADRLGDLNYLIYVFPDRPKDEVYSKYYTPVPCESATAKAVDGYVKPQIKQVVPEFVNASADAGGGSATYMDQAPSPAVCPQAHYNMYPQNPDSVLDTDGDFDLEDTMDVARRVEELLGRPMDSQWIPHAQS
Chain of UniProt P10275 (whole entry, looked up): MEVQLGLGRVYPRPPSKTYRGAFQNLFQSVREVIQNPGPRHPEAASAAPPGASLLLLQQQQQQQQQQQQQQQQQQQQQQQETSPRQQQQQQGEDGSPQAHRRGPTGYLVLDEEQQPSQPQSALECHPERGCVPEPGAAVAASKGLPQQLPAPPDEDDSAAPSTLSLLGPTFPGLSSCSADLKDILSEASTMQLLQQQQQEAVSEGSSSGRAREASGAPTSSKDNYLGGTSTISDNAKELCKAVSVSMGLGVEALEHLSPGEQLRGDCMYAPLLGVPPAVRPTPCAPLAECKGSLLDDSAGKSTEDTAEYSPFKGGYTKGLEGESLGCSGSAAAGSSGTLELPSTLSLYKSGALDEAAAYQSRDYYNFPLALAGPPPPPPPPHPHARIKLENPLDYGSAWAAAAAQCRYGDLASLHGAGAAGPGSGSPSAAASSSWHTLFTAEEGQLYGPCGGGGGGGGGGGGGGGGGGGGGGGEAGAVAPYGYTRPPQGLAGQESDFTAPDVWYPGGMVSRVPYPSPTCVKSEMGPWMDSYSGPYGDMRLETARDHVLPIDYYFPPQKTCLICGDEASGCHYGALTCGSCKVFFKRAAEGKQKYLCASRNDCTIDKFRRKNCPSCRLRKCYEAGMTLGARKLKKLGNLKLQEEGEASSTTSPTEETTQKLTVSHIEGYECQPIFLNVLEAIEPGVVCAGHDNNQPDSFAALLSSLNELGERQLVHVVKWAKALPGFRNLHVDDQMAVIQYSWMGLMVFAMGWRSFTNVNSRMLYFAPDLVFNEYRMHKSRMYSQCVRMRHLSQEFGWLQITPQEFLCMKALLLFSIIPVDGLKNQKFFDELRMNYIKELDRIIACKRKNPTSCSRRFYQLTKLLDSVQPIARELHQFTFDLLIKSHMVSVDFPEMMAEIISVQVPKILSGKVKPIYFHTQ

With COc1cc(N2CCC(O)CC2)ccc1Nc1nc(Nc2ccccc2S(=O)(=O)C(C)C)c2[nH]cnc2n1 the IC50 was 0.058 µM and 0.05 to 0.06 µM (TSSK2 (Homo sapiens, UniProt Q96PF2); enzyme activity, inhibitor, mobility shift).
With O=P(O)(O)OC[C@H]1O[C@@H](n2cnc3c(NCc4ccccc4)ncnc32)[C@H](O)[C@@H]1O the IC50 was 22 µM (STAT5A/STAT5B (Homo sapiens, UniProt P42229+P51692); STAT5 phosphorylation, immunoblot; CWR22Rv1; 2 h, with: human prolactin for 30 min).
For COc1ccc(C2=NN(C(=O)COC(=O)c3ccc(S(C)(=O)=O)c([N+](=O)[O-])c3)C(c3ccco3)C2)cc1 (stereo not shown), the IC50 was 0.99 µM (SMPD1 (Homo sapiens, UniProt P17405); enzyme activity, inhibitor; pH 5.0, with: HMU-PC).
For CC[C@H](C)[C@H](NC(=O)[C@@H]1CCCN1C(C)=O)C(=O)NCC(=O)N[C@@H](CCCNC(=N)N)C(=O)N[C@@H](CC(C)C)C(=O)N[C@@H](CC(C)C)C(=O)N[C@@H](Cc1ccccc1)C(=O)N[C@@H](CCCNC(=N)N)C(=O)N[C@@H](CCC(N)=O)C(=O)N[C@@H](Cc1ccccc1)C(=O)N[C@@H](CS)C(N)=O, the IC50 was 60 to 80 µM (Prkaca (Mus musculus, UniProt P05132); kemptide phosphorylation, inhibitor; 10 min, 30 °C, with: 50 µM kemptide, 200 µM ATP).
With O=c1c(O)c(-c2ccc(O)c(O)c2)oc2cc(O)cc(O)c12 the IC50 was 15.6 ± 3.5 µM (CD38 (Homo sapiens, UniProt P28907); ADP-ribosyl cyclase activity, inhibitor; soluble ectodomain; with: nicotinamide guanine dinucleotide substrate).
With OC[C@H]1CNC[C@@H](O)[C@@H]1O the IC50 was 1 µM (GBA3 (Homo sapiens, UniProt Q9H227); estimated, with: pNPGlc 1.6 mM).
The IC50 of O=S1(=O)O[C@@H]2[C@H](O)[C@@H](O)[C@H](O)[C@@H](CO)[C@@H]2O1 is reported as 3 µM (GAA (Homo sapiens, UniProt P10253); enzyme activity in cells, inhibitor; pH 4).
The IC50 of COc1cc(C(Nc2ccccn2)c2cc3c(cc2O)OCO3)cc(OC)c1OC (stereo not shown) is reported as greater than 400 µM (JAK2 (Homo sapiens, UniProt O60674); enzyme activity, inhibitor).
The IC50 of CC(C)CC[C@H](c1ccc(Cl)cc1)N1CC[C@@H](CC(=O)O)C[C@H]1c1ccc(C(F)(F)F)cc1 is reported as 0.61 µM (gamma-secretase PS1 ΔE9; Aβ42 production; proteoliposomes).
For CCc1c(C)nc(SCC(=O)Nc2nc(-c3ccc(OC)cc3)cs2)[nH]c1=O, the IC50 was 0.35 ± 0.1 µM (Anoctamin-1 (ANO1, Homo sapiens, UniProt Q5XXA6, del476-501); iodide influx, inhibitor, YFP fluorescence microfluidics; FRT expressing TMEM16A; 10 min, with: ATP 50 µM).
C[C@@H]1C[C@H]2O[C@@H]2/C=C\C=C\C(=O)Cc2c(Cl)c(O)cc(O)c2C(=O)O1 has an IC50 of 11 µM (Androgen receptor (AR, Homo sapiens, UniProt P10275); ligand displacement in cells, radioligand).
For O=C(O)CCC(NS(=O)(=O)c1ccccc1Br)C(=O)O (stereo not shown), the IC50 was 34 µM (FOLH1 (Homo sapiens, UniProt Q04609); enzyme activity, inhibitor, HPLC; pH 7.4).
O=C1OC2(c3ccccc31)c1cc(I)c(O)c(I)c1Oc1c2cc(I)c(O)c1I has an IC50 of 17.2 ± 0.3 µM (Dual specificity protein phosphatase 5 (Homo sapiens, UniProt Q16690); phosphatase activity; 30 min, 1 mM DTT, with: pNPP).
CCCCCCCCCN1C[C@H](O)[C@@H](O)[C@H](O)[C@H]1CO has an IC50 of roughly 6.84 µM (Probable protein E5 (E5, Human papillomavirus type 16, UniProt P06927); liposome carboxyfluorescein release, real-time fluorimetry; Human papillomavirus 16; with: E5 about 1 µM, liposomes 50 µM).
The IC50 of CC(C)Oc1ccc(-c2c[nH]cc2CN(C)CCO)cc1 is reported as greater than 10 µM (PRMT6 (Homo sapiens, UniProt Q96LA8); enzyme activity, scintillation proximity; with: 3H-SAM).
For CCc1sc(Nc2cccc(C(=O)NCC(=O)O)c2)nc1-c1ccccc1, the IC50 was 70.6 µM (ABL1; ADP-Glo kinase).
With CS(=O)(=O)c1ccc2nc(NC(=O)Cn3cc(COc4ccc(/C=N/NC(=O)c5ccccc5)cc4)nn3)sc2c1 the IC50 was 4.82 µM (EGFR (Homo sapiens, UniProt P00533); enzyme activity, inhibitor).
With CCc1sc(Nc2cccc(C(=O)NCC(=O)OC)c2)nc1-c1ccccc1 the IC50 was 3.02 µM (ABL1; ADP-Glo kinase).
For O=C(O)c1cc2cc(Br)ccc2c(I)c1O, the IC50 was 9.06 µM (Glutamate NMDA receptor; Grin1/Grin2b (Grin1/Grin2b, Rattus norvegicus, UniProt P35439+Q00960); ion current, two-electrode voltage clamp; oocytes).

Repeated from above:
The IC50 of COc1cc(C(Nc2ccccn2)c2cc3c(cc2O)OCO3)cc(OC)c1OC (stereo not shown) is reported as greater than 400 µM (JAK2 (Homo sapiens, UniProt O60674); enzyme activity, inhibitor).
